Measurements pooled from the literature.
Compare with care: the assays were run in different laboratories. ± gives the spread as reported.

Structure (SMILES) = CNCCOC12CC3(C)CC(C)(CC(Cn4ncc(-c5ccc(N6CCc7cccc(C(=O)Nc8nc9ccccc9s8)c7C6)nc5C(=O)O)c4C)(C3)C1)C2; system = beagle dog, male, anaesthetised; setting = intravenous bolus, 0.03 mg/kg, 60 min; scale = reference: baseline; measurement = heart rate change; result = -1%
Structure (SMILES) = COc1ccc2c(c1)CN(C(=O)CCN1CCC(Cc3ccccc3)CC1)CC[S@@+]2[O-]; test = telemetry; system = conscious male beagle dogs; setting = intravenous, 2 mg/kg, 2 h; measurement = systolic blood pressure; result = 135 ± 16 mmHg
Structure (SMILES) = COc1ccc(Oc2cc(N(C)CCOc3ccc(CC4SC(=O)NC4=O)cc3)ncn2)cc1 (stereo not drawn); system = type 2 diabetes patients, serum; setting = 0.5 mg once daily, 12 weeks, real-world retrospective study; measurement = total bilirubin reduction; result = 0.07 mg/dL
Structure (SMILES) = Cc1ccc(OC2CCN(c3c(C#N)cnc4ccc(F)cc34)CC2)cn1; system = Sprague-Dawley rat, brain and plasma; setting = intravenous, 0.2 mg/kg, cassette, 0.25 h; measurement = Kp,uu brain to plasma; result = 2.4
Structure (SMILES) = COc1cccc(-c2n[nH]c(SCc3ccccn3)n2)c1OC; system = Sprague-Dawley rat, female, plasma; setting = oral gavage, 100 mg/kg; measurement = Cmax; result = 98.9 µg/mL
Structure (SMILES) = O=C(O)CCC(=O)O.[2H]C([2H])([2H])Oc1cc(C)c2[nH]ccc2c1CN1CC[C@@H](C2CC2)C[C@H]1c1ccc(C(=O)O)cc1; system = healthy Chinese subjects; setting = oral, 100 mg, single ascending dose; measurement = subjects with elevated uric acid; result = 0%
Structure (SMILES) = CCOC(=O)N1C[C@@H](c2ccc(C(C)(C)C)cc2)N[C@@H](c2ccc(N3CCCC3)cc2)C1; test = shake-flask, LC-HRMS; system = aqueous buffer; setting = 16 h, pH 6.8; measurement = solubility; result = < 4 µM
Structure (SMILES) = NC[C@@]1(CC(=O)O)[C@@H]2CC[C@H]3C[C@@H]2[C@@H]1C3; system = human, mild renal impairment, plasma; setting = dose not given; scale = reference: normal renal function; measurement = Cmax increase; result = 6%
Structure (SMILES) = COc1ncc(-c2nc3c(n2C(C)C)[C@H](c2ccc(Cl)cc2)N(c2cc(Cl)cn(C)c2=O)C3=O)c(OC)n1; system = human patients, plasma; setting = oral, 350 mg, high-dose arm, cycle 2 day 1; measurement = median Tmax; result = 2.9 h
Structure (SMILES) = O=c1[nH]c(=O)n([C@H]2C[C@H](O)[C@@H](CO)O2)cc1CCCC[18F]; system = male CD-1 nu/nu mice, RG2 tumour, skin; setting = intravenous, dose not given, 2 h; measurement = biodistribution; result = 0.23 ± 0.04 %ID/g
Structure (SMILES) = C[C@H](CCC(=O)NCCS(=O)(=O)O)[C@H]1CC[C@H]2[C@@H]3[C@H](O)C[C@@H]4C[C@H](O)CC[C@]4(C)[C@H]3C[C@H](O)[C@]12C; system = human, plasma; setting = control; measurement = Cmin; result = 7.59 ± 0.28 nM
Structure (SMILES) = Cc1c(Cl)c(C)[n+]([O-])c(Cl)c1-c1noc(-c2cc(O)c(O)c([N+](=O)[O-])c2)n1; system = healthy Chinese human; setting = oral, 100 mg; measurement = any treatment-emergent adverse event; result = 33.3%
Structure (SMILES) = CCOCc1nc(O)c(-c2nnc(Cc3ccc(Cl)cn3)o2)c(O)c1-c1c(OC)cccc1OC; system = anaesthetised rat, plasma; setting = intravenous infusion, 10 µg/kg/min, 5 min; measurement = plasma concentration; result = 855 ± 54 nM
Structure (SMILES) = COc1cc(C(=O)N2CCC3(CC2)CC(=O)c2c(cnn2C(C)C)C3)cc(-c2ccc(C(=O)O)cc2)n1; system = human, fasting serum; setting = 100 mg once daily, day 13, adjusted geometric mean; measurement = HDL cholesterol change from baseline; result = -10.7%
Structure (SMILES) = Cc1cc([C@H]2C[C@H]3[C@@H](CF)SC(N)=N[C@@]3(c3ccc(F)cc3F)CO2)on1; system = male 129/SVE wild-type mouse, brain; setting = subcutaneous, 100 mg/kg, 7 h; measurement = brain concentration; result = 78 nM
Structure (SMILES) = CCC[C@H](C)[C@H]1CN(C(=O)OCC)C[C@@H](c2ccc(-c3ccccc3)cc2)N1; test = shake-flask, LC-HRMS; system = aqueous buffer; setting = 16 h, pH 6.8; measurement = solubility; result = < 4 µM
Structure (SMILES) = CNCc1ccc(-c2[nH]c3cc(F)cc4c3c2CCNC4=O)cc1; system = human patients; setting = oral, 600 mg twice daily, grade 2; measurement = vomiting incidence; result = 0%
Structure (SMILES) = COc1cccc(OC)c1-c1cc(C(=O)NC2(C(=O)O)C3CC4CC(C3)CC2C4)nn1-c1ccc(C(=O)N(C)CCCN(C)CCCN(C)C(=O)CN2CCN(CC(=O)[O-])CCN(CC(=O)[O-])CCN(CC(=O)[O-])CC2)cc1C(C)C.[177Lu+3] (stereo not drawn); system = HT-29 xenograft mouse, kidney; setting = 168 h; scale = reference: initial uptake; measurement = renal retention; result = 5 ± 3%
Structure (SMILES) = CCCCC1=NC2(CCCC2)C(=O)N1Cc1ccc(-c2ccccc2S(=O)(=O)Nc2noc(C)c2C)c(COCC)c1; system = healthy adult volunteers, plasma; setting = oral, 800 mg, single dose, fed, crushed tablet; measurement = Tmax; result = 6.2 h
Structure (SMILES) = CCCCc1ccc(C#Cc2ccc(OCC)cc2)cc1; system = rat, placenta; setting = 1000 ng/mL in perfusate, middle dose, mixture of 21 LCMs; measurement = placental accumulation; result = 11.1 ± 13.1 ng/g
Structure (SMILES) = O=c1[nH]c(=O)n([C@@H]2O[C@H](CO)[C@@H](O)[C@@H]2F)cc1CCCCC[18F]; system = nude mice, RG2 tumour, kidney; setting = intravenous, dose not given, 2 h; measurement = biodistribution; result = 0.36 ± 0.06 %ID/g
Structure (SMILES) = CCc1cc(C(=O)NC)c2nccc(N3CCc4c(cc(Cn5ccnc5)cc4-c4cn(C)nc4C(F)(F)F)C3=O)c2c1; system = Sprague-Dawley rats, male, bile duct-cannulated, plasma; setting = oral, 50 mg/kg; measurement = MRT(0-inf); result = 3.4 h
Structure (SMILES) = COc1ccc([C@@H](O)c2cc(-c3ncnc4cc(N5CCOCC5)ccc34)c(F)cc2Cl)nn1; system = locally advanced rectal cancer; setting = all dose levels overall, together with: capecitabine and radiotherapy; measurement = TEAE, gastrointestinal disorders; result = 100%
Structure (SMILES) = CO[C@H]1C[C@@H]2CC[C@@H](C)[C@@](O)(O2)C(=O)C(=O)N2CCCC[C@H]2C(=O)O[C@H]([C@H](C)C[C@@H]2CC[C@@H](O)[C@H](OC)C2)CC(=O)[C@H](C)/C=C(\C)[C@@H](O)[C@@H](OC)C(=O)[C@H](C)C[C@H](C)/C=C/C=C/C=C/1C; system = healthy adult horses; setting = intravenous, 0.06 mg/kg, 24 h; measurement = heart rate; result = 33.5 ± 2.8 beats/min
Structure (SMILES) = CNc1cc[n+](CCNC(=O)c2ccn3c(-c4c(C)noc4C)cnc3c2)cc1.[Cl-]; system = aqueous buffer; setting = initial, pH 10; measurement = total organic impurities; result = 0 % peak area
Structure (SMILES) = NC1(C(=O)N[C@@H](CCO)c2ccc(Cl)cc2)CCN(c2nc[nH]c3nccc2-3)CC1; system = human mCRPC patients; setting = oral, twice daily, 4/7 days, any grade, treatment-related, together with: enzalutamide 160 mg daily; measurement = decreased appetite incidence; result = 53.3%
Structure (SMILES) = Cc1cc(NC2CCN(C(=O)OC3CCN(C(=O)/C=C/CN(C)C)C3)CC2)n2ncc(C(C)C)c2n1 (stereo not drawn); test = CTCAE v4.0, refers to: Diarrhea; system = patients with advanced solid tumours; setting = oral, dose not given, TIW, grade 3 or higher; measurement = patients with TEAE; result = 0%
Structure (SMILES) = Cc1c(-c2ccc(N3CCc4cccc(C(=O)Nc5nc6ccccc6s5)c4C3)nc2C(=O)O)cnn1CC12CC3(C)CC(C)(C1)CC(OCCNCC[C@H](O)CO)(C3)C2; system = beagle dog, male, anaesthetised; setting = intravenous infusion, 0.3 mg/kg/min, 45 min; scale = reference: vehicle; measurement = QRS duration change; result = 0 ms
Structure (SMILES) = CCn1cc(C(=O)N2CCOCC2)c(=O)c2cc(NC3Cc4ccccc4C3)cnc21; system = human, fasted; setting = oral suspension, 50 mg single dose, arithmetic mean; measurement = half-life; result = 7.71 h
Structure (SMILES) = C[C@@H](N)C1CCN(S(=O)(=O)c2cccc3cnccc23)CC1; test = refers to: Nausea; system = healthy volunteers; setting = 150 mg, fed; measurement = TEAE incidence; result = 0%
Structure (SMILES) = CCCCOc1ccc([C@H]2CC[C@H](CCC)CC2)c(F)c1F; system = rat, placenta; setting = 1000 ng/mL in perfusate, middle dose, mixture of 21 LCMs; measurement = placental accumulation; result = 15.8 ± 14.2 ng/g
Structure (SMILES) = CCNCCCNC/C=C\CNCCCNCC; test = LC-MS/MS; system = human cancer patients, plasma; setting = intravenous infusion 60 min, 100 mg, median, cycle 1; measurement = elimination rate constant; result = 3.66 h⁻¹
Structure (SMILES) = C=CC(=O)NC1CCN(c2ncc3ncnc(Nc4ccc(Oc5ccc6c(c5)ncn6C)c(C)c4)c3n2)CC1; test = refers to: total radioactivity; system = healthy male volunteers, plasma; setting = oral solution, 60 mg, together with: [14C]-labelled compound; measurement = AUC0–24; result = 13.3 µM·h
Structure (SMILES) = CC(C)(C(=O)N1CCOc2c(C#N)cncc2C1)C(F)F; test = refers to: eye disorders; system = healthy humans, both sexes; setting = oral, 40 mg single dose; measurement = subjects with TEAE; result = 0%
Structure (SMILES) = Cc1cc(Nc2ncnc3ccc(NC4=NC(C)(C)CO4)cc23)ccc1Oc1ccn2ncnc2c1; test = refers to: Dizziness; system = healthy volunteers; setting = oral, dose not given, grade 1-2; measurement = drug-related adverse events; result = 7.7%
Structure (SMILES) = O=C(N/N=C/c1ccccc1O)c1ccncc1; system = DMEM cell medium; setting = 115 µM, 12 h, 5 °C, post-preparative, autosampler; measurement = stability; result = 93.4%
Structure (SMILES) = Cc1ccc([C@@H]2O[C@H](CO)[C@@H](O)[C@H](O)[C@H]2O)cc1Cc1ccc(-c2ccc(F)cc2)s1; system = Japanese type 2 diabetes patients; setting = 400 mg, day 16, 24 h urine collection; scale = reference: baseline; measurement = urinary magnesium excretion change; result = 8.12 mg
Structure (SMILES) = Cc1cccc(CNC(=O)c2cn(CCNC(=O)c3ccccc3S)c3cc4c(cc3c2=O)OC(F)(F)O4)n1; system = Sprague-Dawley rat, male, plasma; setting = intravenous, 5 mg/kg of parent compound; measurement = MRT(0-inf); result = 0.63 ± 0.1 h
Structure (SMILES) = C[C@@H](NC(=O)N1C(=O)[C@H](Cc2ccnc(N)c2)[C@H]1C(=O)O)C1CCCCC1; test = UPLC-MS/MS; system = healthy adult Chinese volunteers, plasma; setting = continuous intravenous infusion, 1.0 mg/kg/h, day 1 of 5-day infusion, geometric mean; measurement = Css; result = 2.99 µg/mL
Structure (SMILES) = O=C1CC[C@H](N2Cc3cc(N4CCN(CC5CCN(c6ccc([C@@H]7c8ccc(O)cc8CC[C@@H]7c7ccccc7)cc6)CC5)CC4)ccc3C2=O)C(=O)N1; test = refers to: Diarrhea; system = human; setting = oral, 200 mg, together with: dabigatran etexilate 75 mg; measurement = participants with adverse event; result = 0%
Structure (SMILES) = N#Cc1ccc2c(c1)[C@H]1CCCN(C(=O)c3ccc4[nH]cnc4c3)[C@H]1C2; system = human; setting = 20 mg, end of trial; measurement = minimum ACTH level; result = 1.3 pmol/L
Structure (SMILES) = Cc1cc([C@H]2C[C@H]3[C@@H](C)SC(N)=N[C@@]3(c3ccc(F)cc3F)CO2)on1; system = male 129/SVE mouse, CSF; setting = subcutaneous, 50 mg/kg, 1 h; measurement = CSF concentration; result = 2350 nM
Structure (SMILES) = CCO[C@H]1CCN(Cc2c(OC)cc(C)c3[nH]ccc23)[C@H](c2ccc(C(=O)O)cc2)C1; system = mild hepatic impairment, plasma; setting = oral, 200 mg single dose, mean; measurement = total half-life; result = 27.4 h
Structure (SMILES) = Cc1cc(C(=O)NC(C)(C)COc2cccc3c2C(N)=NS(=O)(=O)N3)cc(C)n1; system = Sprague-Dawley rat, plasma; setting = oral, 30 mg/kg, vehicle 1% methylcellulose; scale = reference: female over male; measurement = AUC(last) ratio; result = 1.13
Structure (SMILES) = O=C(Nc1nc2cccc(-c3ccc(CN4CCS(=O)(=O)CC4)cc3)n2n1)C1CC1; test = refers to: ear and labyrinth disorders; system = human rheumatoid arthritis patients; setting = oral, 200 mg once daily, 4 weeks, regardless of relatedness; measurement = treatment-emergent adverse events; result = 0%

A few entries again:
Structure (SMILES) = COc1cc(C(=O)N2CCC3(CC2)CC(=O)c2c(cnn2C(C)C)C3)cc(-c2ccc(C(=O)O)cc2)n1; system = human, fasting serum; setting = 100 mg once daily, day 13, adjusted geometric mean; measurement = HDL cholesterol change from baseline; result = -10.7%
Structure (SMILES) = Cc1cc([C@H]2C[C@H]3[C@@H](CF)SC(N)=N[C@@]3(c3ccc(F)cc3F)CO2)on1; system = male 129/SVE wild-type mouse, brain; setting = subcutaneous, 100 mg/kg, 7 h; measurement = brain concentration; result = 78 nM
Structure (SMILES) = CCC[C@H](C)[C@H]1CN(C(=O)OCC)C[C@@H](c2ccc(-c3ccccc3)cc2)N1; test = shake-flask, LC-HRMS; system = aqueous buffer; setting = 16 h, pH 6.8; measurement = solubility; result = < 4 µM
Structure (SMILES) = CNCc1ccc(-c2[nH]c3cc(F)cc4c3c2CCNC4=O)cc1; system = human patients; setting = oral, 600 mg twice daily, grade 2; measurement = vomiting incidence; result = 0%
Structure (SMILES) = COc1cccc(OC)c1-c1cc(C(=O)NC2(C(=O)O)C3CC4CC(C3)CC2C4)nn1-c1ccc(C(=O)N(C)CCCN(C)CCCN(C)C(=O)CN2CCN(CC(=O)[O-])CCN(CC(=O)[O-])CCN(CC(=O)[O-])CC2)cc1C(C)C.[177Lu+3] (stereo not drawn); system = HT-29 xenograft mouse, kidney; setting = 168 h; scale = reference: initial uptake; measurement = renal retention; result = 5 ± 3%
